Experimental data gathered from unrelated publications.
Each line is one published result; not all experiments were run side by side. ± marks the error that the study gave.

amyloid beta-42 Met35-sulfone  viability decrease (rat primary cortical neurons; LDH release; 10 µM, 48 h; baseline: medium control): 24 ± 3%
COc1c(Nc2cc(C)[nH]n2)nc(Sc2ccc(S(=O)(=O)Cc3cccc([N+](=O)[O-])c3F)cc2F)nc1N1CCOCC1  single-condensate cells (RPE1, inducible TRIM37 knockout; measured: centrobin condensates; concentration not given): 94%
CC(C)[C@H](CO)Nc1nc(Nc2cc(N)cc(Cl)c2)c2ncn(C(C)C)c2n1  inhibition (A549 EGFR reporter cells; EGFR-induced granule formation; 10 µM, together with: 500 nM EGF; negative means activation): 62%
C/C=C1\NC(=O)[C@@H](NC(=O)[C@H](CCC(N)=O)NC(=O)CCCCC)[C@@H](C)OC(=O)[C@H](C(C)C)NC(=O)[C@H](Cc2ccc(O)cc2)N(C)C(=O)[C@H](Cc2ccccc2)N2C(=O)[C@H](CC[C@H]2O)NC1=O  concentration at maximal effect (BEAS-2B; IL1B mRNA induction, inhibitor, RT-qPCR, measured: IL1B mRNA; 3 h, together with: 100 nM neutrophil elastase): 1 µM
c1ccc(Nc2ccc3ccccc3c2)cc1  OCR (HepG2; Seahorse respirometry; concentration not given, 1 h, dosed at MMP IC50, together with: 1 µM FCCP; baseline: basal): 177.5 ± 1.62%
CC[C@H](C)[C@H](NC(=O)C(C)(C)NC(=O)[C@@H](N)C(C)C)C(=O)N[C@@H](C)C(N)=O  viability (PC-12; Aβ42-induced neurotoxicity, inhibitor, MTT; concentration not given, 6 h, 37 °C, peptide to Aβ42 1:2, together with: Aβ42 2 µM; baseline: untreated cells): 93%
CN[C@@](C)(C[18F])C(=O)O  tracer uptake (DU-145 tumour model; host not given, bone; 2 h, tumour-bearing): 1.8 %ID/g
O=C1C2CC=CCC2C(=O)N1SC(Cl)(Cl)Cl (stereo not shown)  OCR (HepG2; Seahorse respirometry; concentration not given, 1 h, dosed at MMP IC50, together with: 1 µM FCCP; baseline: basal): 62.2 ± 0.91%
CCCCCCCCCCCCCCCCCC(=O)NCC(COP(=O)([O-])OCC[N+](C)(C)C)OCC (racemic)  Emax (HEK293 expressing MOR; morphine-induced cAMP overshoot, HTRF cAMP; 1 µM, together with: NKH 477 25 nM; baseline: morphine control): 101%
CN(C)c1ccc(C(=C2C=CC(=[N+](C)C)C=C2)c2ccc(N(C)C)cc2)cc1  OCR (HepG2; Seahorse respirometry; concentration not given, 1 h, dosed at MMP IC50, together with: 1 µM FCCP; baseline: basal): 87.5 ± 0.9%
O=C1CC(=O)CC([C@@H]2C[C@H]2c2cc(C(F)(F)F)cc(C(F)(F)F)c2)C1 (racemic)  neuroprotection (rat primary cortical neurons; viability; up to 100 µM, together with: MG132 100 nM): positive
C=C1[C@@H](C)[C@H]2[C@H](Cc3ccccc3)NC(=O)[C@]23[C@H](OC(C)=O)/C=C/[C@@](C)(O)C(=O)[C@@H](C)C/C=C/[C@H]3[C@@H]1O  aspiration pressure (K562 cells; micropipette aspiration; 10 µM, 20 min, 37 °C): 6 ± 4 pN/µm²
amyloid beta-42 Met35-sulfone  apoptotic cells (rat primary cortical neurons; TUNEL; 10 µM, 48 h): 19.7 ± 0.8%
Oc1ccc(Cl)cc1Cc1cc(Cl)ccc1O  OCR (HepG2; Seahorse respirometry; concentration not given, 1 h, dosed at MMP IC50, together with: 1 µM FCCP; baseline: basal): 164.2 ± 0.81%
O=C(/C=C/c1ccc2c(c1)OCO2)NCCc1ccc(Cl)cc1  EBV-EA positive cells (Raji; TPA-induced EBV-EA expression, inhibitor; 100-fold molar ratio to TPA, 48 h, together with: TPA 32 pmol/mL; baseline: TPA control): 83 ± 2.4%
PIAIIIA  mobile fraction CN-YFP (rat hippocampal neurons, AKAP150 RNAi, AKAP79 expression; FRAP; peptide, dendritic spines; dose not given, 32 °C): 81.3 ± 0.6%
CC1=C(/C=C/C(C)=C/C=C/C(C)=C/C(=O)Nc2ccc(O)cc2)C(C)(C)CCC1  efficacy (HEK293 expressing MOR; morphine-induced cAMP overshoot, HTRF cAMP; 1 µM, together with: NKH 477 25 nM; baseline: morphine control): 46%
CC(C)Oc1cccc(CC(=O)N2CCC[C@@](CC[N+]34CCC(c5ccccc5)(CC3)CC4)(c3ccc(Cl)c(Cl)c3)C2)c1.[Cl-]  ERK activity (HEK293 expressing NK1R; nuclear ERK, antagonist, FRET biosensor; concentration not given, 30 min, together with: substance P): inhibited
C[C@@H](CO)CCC[C@@H](C)[C@H]1CC[C@H]2[C@@H]3CC=C4C[C@@H](O)CC[C@]4(C)[C@H]3CC[C@]12C  inhibition (THP-1; bioresmethrin hydrolysis; 1 µM, 60 min pretreatment, together with: bioresmethrin 50 µM): 77 ± 9%
CC1(C)C(C=C(Cl)Cl)C1C(=O)OCc1cccc(Oc2ccccc2)c1 (stereo not shown)  lowest effective concentration (human iPSC-derived cardiomyocytes; beat peak frequency; 30 min): 3 µM
COc1cc(F)ccc1-c1ncnc(Nc2cccc(C[S@](C)(=N)=O)c2)n1  inhibition of latency reversal (J-Lat 10.6 cells; measured: GFP-positive cells; 10 µM, 21 days, spontaneous, after wash-out; baseline: DMSO 0.1%): 96.5 ± 0.7%
CC(C)c1ccc2c(c1)CC[C@H]1[C@](C)(CN)CCC[C@]21C  IC50 (SK-MEL-24; cell growth or viability, MTS; 72 h): 1.47 µM
CC[C@@H](C)[C@@H](NC(=O)[C@@H](N)C(C)C)C(=O)N[C@H](C(=O)N[C@@H](C)C(N)=O)[C@@H](C)CC  viability (PC-12; Aβ42-induced neurotoxicity, inhibitor, MTT; concentration not given, 6 h, 37 °C, peptide to Aβ42 1:2, together with: Aβ42 2 µM; baseline: untreated cells): 92.8%
CC[C@@H](C(=O)[C@@H](C)[C@@H](O)[C@H](C)[C@@H]1O[C@@H]([C@@H](CC)C(=O)O)CC[C@@H]1C)[C@H]1O[C@]2(C=C[C@@H](O)[C@]3(CC[C@@](C)([C@H]4CC[C@](O)(CC)[C@H](C)O4)O3)O2)[C@H](C)C[C@@H]1C  colony formation (MDA-MB-231; half IC50, 24 h; baseline: untreated): 92%
C=C1[C@@H](C)[C@H]2[C@H](Cc3ccccc3)NC(=O)[C@]23[C@H](OC(C)=O)/C=C/[C@@](C)(O)C(=O)[C@@H](C)C/C=C/[C@H]3[C@@H]1O  inhibition (MCEC mouse; transfection reporter gene; 5.0 µg/mL, 1 h; baseline: vehicle): 89.3%
C[C@@H]1CC[C@@]2(OC1)O[C@H]1[C@@H](O)[C@H]3[C@@H]4CC[C@H]5C[C@@H](O[C@@H]6O[C@H](CO)[C@H](O[C@@H]7O[C@H](CO)[C@@H](O)[C@H](O[C@@H]8OC[C@@H](O)[C@H](O)[C@H]8O)[C@H]7O[C@@H]7O[C@H](CO)[C@H](O)[C@H](O[C@@H]8O[C@H](CO)[C@@H](O)[C@H](O)[C@H]8O)[C@H]7O)[C@H](O)[C@H]6O)[C@H](O)C[C@]5(C)[C@H]4CC[C@]3(C)[C@H]1[C@@H]2C  OCR (HepG2; Seahorse respirometry; concentration not given, 1 h, dosed at MMP IC50, together with: 1 µM FCCP; baseline: basal): 115.2 ± 0.13%
CC(C)(c1cc(Br)c(O)c(Br)c1)c1cc(Br)c(O)c(Br)c1  lowest effective concentration (human iPSC-derived cardiomyocytes; beat peak frequency; 30 min): 30 µM
O=C1CC[C@@]2(O)[C@H]3Cc4ccc(O)c5c4[C@@]2(CCN3CC2CC2)[C@H]1O5  Emax (HEK293 expressing MOR; morphine-induced cAMP overshoot, HTRF cAMP; 1 µM, together with: NKH 477 25 nM; baseline: morphine control): 102%
Tricresyl phosphate  lowest active concentration (human iPSC-derived cardiomyocytes; beating frequency; 30 min): 3 µM
CC[C@H](C)[C@H](NC(=O)[C@@H](NC(=O)[C@@H](N)C(C)C)C(C)C)C(=O)N[C@H](C(N)=O)C(C)C  viability (PC-12; Aβ42-induced neurotoxicity, inhibitor, MTT; concentration not given, 6 h, 37 °C, peptide to Aβ42 1:2, together with: Aβ42 2 µM; baseline: untreated cells): 75.4%
CC(C)OC(=O)[C@H](C)N[P@](=O)(OC[C@H]1O[C@@](C#N)(c2ccc3c(N)ncnn23)[C@H](O)[C@@H]1O)Oc1ccccc1  reduction of metabolite formation (BEAS-2B; measured: remdesivir triphosphate; 10 µM, 48 h, together with: telaprevir 5 µM; baseline: without telaprevir): ~100%

Repeated from above:
CC(C)[C@H](CO)Nc1nc(Nc2cc(N)cc(Cl)c2)c2ncn(C(C)C)c2n1  inhibition (A549 EGFR reporter cells; EGFR-induced granule formation; 10 µM, together with: 500 nM EGF; negative means activation): 62%
C/C=C1\NC(=O)[C@@H](NC(=O)[C@H](CCC(N)=O)NC(=O)CCCCC)[C@@H](C)OC(=O)[C@H](C(C)C)NC(=O)[C@H](Cc2ccc(O)cc2)N(C)C(=O)[C@H](Cc2ccccc2)N2C(=O)[C@H](CC[C@H]2O)NC1=O  concentration at maximal effect (BEAS-2B; IL1B mRNA induction, inhibitor, RT-qPCR, measured: IL1B mRNA; 3 h, together with: 100 nM neutrophil elastase): 1 µM
c1ccc(Nc2ccc3ccccc3c2)cc1  OCR (HepG2; Seahorse respirometry; concentration not given, 1 h, dosed at MMP IC50, together with: 1 µM FCCP; baseline: basal): 177.5 ± 1.62%
CC[C@H](C)[C@H](NC(=O)C(C)(C)NC(=O)[C@@H](N)C(C)C)C(=O)N[C@@H](C)C(N)=O  viability (PC-12; Aβ42-induced neurotoxicity, inhibitor, MTT; concentration not given, 6 h, 37 °C, peptide to Aβ42 1:2, together with: Aβ42 2 µM; baseline: untreated cells): 93%
